Results from different studies.
Protocols differ between the studies behind these lines. “And” joins repeats or separate records; there may be more than shown. Numbers after ± are the reported error.
Chrna7: Neuronal acetylcholine receptor subunit alpha-7 (Chrna7, Rattus norvegicus, UniProt Q05941)
Chain of UniProt Q05941 (whole entry, looked up): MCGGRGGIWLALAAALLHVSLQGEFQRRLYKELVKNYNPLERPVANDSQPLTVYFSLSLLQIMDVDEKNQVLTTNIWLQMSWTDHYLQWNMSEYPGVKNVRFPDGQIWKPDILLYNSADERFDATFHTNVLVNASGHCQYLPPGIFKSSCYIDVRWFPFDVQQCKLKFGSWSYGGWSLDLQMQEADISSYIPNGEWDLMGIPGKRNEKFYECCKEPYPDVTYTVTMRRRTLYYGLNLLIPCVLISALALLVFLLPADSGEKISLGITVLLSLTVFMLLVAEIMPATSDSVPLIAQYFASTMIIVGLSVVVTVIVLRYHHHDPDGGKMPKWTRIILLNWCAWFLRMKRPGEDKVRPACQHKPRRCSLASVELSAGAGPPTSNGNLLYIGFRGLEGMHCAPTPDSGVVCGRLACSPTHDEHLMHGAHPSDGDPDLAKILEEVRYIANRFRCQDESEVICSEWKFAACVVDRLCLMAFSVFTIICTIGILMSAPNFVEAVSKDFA
MAL12: Alpha-glucosidase MAL12 (MAL12, Saccharomyces cerevisiae S288c, UniProt P53341)
Chain of UniProt P53341 (whole entry, looked up): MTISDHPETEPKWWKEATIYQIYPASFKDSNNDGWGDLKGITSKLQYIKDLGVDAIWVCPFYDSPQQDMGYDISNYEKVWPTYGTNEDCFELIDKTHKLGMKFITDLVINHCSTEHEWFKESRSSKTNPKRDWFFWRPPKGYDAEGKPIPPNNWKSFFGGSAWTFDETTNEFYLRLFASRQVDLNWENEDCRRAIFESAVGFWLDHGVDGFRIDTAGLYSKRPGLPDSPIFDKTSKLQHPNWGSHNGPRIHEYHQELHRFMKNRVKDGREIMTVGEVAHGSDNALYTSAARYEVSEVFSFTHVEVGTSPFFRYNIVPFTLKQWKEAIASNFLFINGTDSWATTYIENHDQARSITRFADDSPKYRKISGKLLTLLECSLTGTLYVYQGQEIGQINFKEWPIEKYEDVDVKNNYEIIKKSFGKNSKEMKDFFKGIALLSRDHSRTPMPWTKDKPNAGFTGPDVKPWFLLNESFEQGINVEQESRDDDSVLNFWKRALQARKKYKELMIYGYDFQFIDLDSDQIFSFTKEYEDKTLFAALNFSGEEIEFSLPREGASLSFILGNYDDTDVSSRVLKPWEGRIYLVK
MAP3K7 with TAB1: Mitogen-activated protein kinase kinase kinase 7, with TAB1 (MAP3K7, Homo sapiens, UniProt O43318)
Chain of UniProt O43318 (whole entry, looked up): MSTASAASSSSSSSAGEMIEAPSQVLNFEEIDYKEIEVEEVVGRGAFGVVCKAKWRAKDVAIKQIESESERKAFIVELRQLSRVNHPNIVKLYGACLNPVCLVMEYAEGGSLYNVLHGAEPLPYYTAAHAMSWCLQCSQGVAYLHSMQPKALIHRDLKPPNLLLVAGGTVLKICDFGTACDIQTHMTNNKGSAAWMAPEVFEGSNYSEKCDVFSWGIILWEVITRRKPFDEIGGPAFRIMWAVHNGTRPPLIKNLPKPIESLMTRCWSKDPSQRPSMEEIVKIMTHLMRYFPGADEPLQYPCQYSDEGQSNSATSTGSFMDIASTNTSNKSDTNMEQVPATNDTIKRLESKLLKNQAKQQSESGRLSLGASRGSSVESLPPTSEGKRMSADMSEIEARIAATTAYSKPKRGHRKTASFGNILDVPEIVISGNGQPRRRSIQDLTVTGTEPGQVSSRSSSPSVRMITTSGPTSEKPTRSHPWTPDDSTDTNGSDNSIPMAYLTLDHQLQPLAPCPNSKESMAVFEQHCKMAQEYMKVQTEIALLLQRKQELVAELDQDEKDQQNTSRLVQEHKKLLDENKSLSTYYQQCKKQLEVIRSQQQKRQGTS
P4HB: Protein disulfide-isomerase (P4HB, Homo sapiens, UniProt P07237)
Chain of UniProt P07237 (whole entry, looked up): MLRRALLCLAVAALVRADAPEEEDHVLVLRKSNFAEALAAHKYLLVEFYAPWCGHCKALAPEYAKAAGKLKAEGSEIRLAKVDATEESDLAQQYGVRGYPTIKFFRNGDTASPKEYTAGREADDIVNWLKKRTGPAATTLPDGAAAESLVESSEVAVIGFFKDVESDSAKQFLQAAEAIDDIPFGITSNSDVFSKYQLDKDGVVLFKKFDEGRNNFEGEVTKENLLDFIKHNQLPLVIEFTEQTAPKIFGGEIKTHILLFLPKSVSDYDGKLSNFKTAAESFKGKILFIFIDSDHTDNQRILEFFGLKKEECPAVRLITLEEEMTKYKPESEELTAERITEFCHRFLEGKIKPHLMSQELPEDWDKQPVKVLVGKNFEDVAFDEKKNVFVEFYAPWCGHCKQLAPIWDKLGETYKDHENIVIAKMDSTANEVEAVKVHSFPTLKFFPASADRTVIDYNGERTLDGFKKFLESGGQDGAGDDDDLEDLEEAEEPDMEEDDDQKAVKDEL
Chain of UniProt P06401 (whole entry, looked up): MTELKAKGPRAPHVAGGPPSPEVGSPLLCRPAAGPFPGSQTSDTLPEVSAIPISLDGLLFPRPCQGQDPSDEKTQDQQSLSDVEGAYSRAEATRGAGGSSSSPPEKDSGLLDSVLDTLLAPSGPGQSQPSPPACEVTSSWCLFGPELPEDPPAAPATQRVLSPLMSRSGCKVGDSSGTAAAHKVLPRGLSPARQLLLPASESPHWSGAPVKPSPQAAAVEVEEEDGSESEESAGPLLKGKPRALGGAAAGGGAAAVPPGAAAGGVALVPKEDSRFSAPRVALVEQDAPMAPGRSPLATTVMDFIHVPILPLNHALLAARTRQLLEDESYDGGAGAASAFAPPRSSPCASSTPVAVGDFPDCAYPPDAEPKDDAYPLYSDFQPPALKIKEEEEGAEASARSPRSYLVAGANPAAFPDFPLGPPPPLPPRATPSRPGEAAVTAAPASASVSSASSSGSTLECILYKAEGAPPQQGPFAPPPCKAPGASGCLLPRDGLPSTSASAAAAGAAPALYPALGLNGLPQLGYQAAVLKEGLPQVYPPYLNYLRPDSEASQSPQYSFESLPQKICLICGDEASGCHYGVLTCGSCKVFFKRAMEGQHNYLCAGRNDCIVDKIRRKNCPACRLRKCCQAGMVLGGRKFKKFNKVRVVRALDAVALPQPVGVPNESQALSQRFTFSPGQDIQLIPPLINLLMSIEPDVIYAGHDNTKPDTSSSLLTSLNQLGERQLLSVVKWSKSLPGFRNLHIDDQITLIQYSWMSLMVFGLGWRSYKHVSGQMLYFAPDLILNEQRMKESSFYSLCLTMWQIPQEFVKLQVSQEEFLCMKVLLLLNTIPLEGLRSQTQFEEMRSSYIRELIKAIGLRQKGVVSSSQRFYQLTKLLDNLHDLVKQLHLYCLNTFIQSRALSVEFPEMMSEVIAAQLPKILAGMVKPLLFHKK
Chain of UniProt P19256 (whole entry, looked up): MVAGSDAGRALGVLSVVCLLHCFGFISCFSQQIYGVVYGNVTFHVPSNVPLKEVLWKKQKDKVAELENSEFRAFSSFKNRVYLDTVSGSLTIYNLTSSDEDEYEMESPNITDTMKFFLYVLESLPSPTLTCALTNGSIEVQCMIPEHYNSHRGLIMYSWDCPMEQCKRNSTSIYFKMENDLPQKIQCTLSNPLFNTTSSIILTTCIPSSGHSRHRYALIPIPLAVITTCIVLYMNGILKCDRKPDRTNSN
Chain of UniProt P55085 (whole entry, looked up): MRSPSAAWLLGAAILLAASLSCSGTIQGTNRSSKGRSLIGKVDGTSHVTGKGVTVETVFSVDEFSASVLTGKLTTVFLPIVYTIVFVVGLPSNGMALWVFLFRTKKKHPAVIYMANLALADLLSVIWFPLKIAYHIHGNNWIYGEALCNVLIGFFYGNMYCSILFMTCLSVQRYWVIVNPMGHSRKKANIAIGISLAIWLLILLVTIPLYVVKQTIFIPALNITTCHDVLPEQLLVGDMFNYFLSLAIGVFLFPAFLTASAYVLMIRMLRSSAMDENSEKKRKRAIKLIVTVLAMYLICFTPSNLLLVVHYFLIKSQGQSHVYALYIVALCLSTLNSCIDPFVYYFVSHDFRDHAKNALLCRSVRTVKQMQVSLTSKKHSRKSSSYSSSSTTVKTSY
Chain of UniProt O95372 (whole entry, looked up): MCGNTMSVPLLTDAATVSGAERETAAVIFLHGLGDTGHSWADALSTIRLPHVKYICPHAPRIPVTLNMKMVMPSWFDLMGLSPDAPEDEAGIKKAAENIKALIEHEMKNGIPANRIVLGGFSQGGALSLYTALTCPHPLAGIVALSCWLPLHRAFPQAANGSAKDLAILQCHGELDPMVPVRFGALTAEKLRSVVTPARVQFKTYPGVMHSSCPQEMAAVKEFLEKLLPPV
Chain of UniProt P49759 (whole entry, looked up): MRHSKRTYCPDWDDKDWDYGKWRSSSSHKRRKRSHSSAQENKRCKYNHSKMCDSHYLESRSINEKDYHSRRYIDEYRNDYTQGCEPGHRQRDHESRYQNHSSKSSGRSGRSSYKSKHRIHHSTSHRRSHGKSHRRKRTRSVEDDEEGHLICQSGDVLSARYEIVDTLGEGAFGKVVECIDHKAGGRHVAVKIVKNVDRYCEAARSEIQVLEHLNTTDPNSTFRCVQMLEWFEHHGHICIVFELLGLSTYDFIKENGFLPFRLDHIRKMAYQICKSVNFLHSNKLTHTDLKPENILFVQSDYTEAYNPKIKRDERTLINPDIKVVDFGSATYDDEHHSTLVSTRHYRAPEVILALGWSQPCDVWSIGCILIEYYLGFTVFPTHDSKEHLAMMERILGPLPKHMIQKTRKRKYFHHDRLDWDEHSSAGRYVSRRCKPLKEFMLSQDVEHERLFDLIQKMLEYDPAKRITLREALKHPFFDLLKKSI
Chain of UniProt P18825 (whole entry, looked up): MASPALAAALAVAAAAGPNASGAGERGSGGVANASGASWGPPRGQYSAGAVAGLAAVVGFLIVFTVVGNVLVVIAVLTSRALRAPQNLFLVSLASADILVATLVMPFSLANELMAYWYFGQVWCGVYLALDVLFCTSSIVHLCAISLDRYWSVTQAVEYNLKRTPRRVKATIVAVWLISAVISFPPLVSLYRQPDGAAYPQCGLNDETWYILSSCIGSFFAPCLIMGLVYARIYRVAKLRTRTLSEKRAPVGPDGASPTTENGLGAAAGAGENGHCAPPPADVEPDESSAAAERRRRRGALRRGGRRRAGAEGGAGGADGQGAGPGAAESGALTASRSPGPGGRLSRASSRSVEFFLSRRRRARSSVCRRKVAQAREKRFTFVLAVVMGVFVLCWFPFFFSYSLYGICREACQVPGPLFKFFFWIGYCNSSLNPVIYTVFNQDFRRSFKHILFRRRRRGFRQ

For `COc1ccc(CCC2CCCC(CCc3ccc(OC)cc3)N2C[C@@H](O)CO)cc1.Cl` (stereo in doubt), the inhibition was ~20% (Chrna7; [3H]methyllycaconitine binding; 30 µM).
`Cc1ncc(C)n2nc(/C=C/c3nc(N4CCCC4)cc(N4CCOCC4)n3)nc12` has an inhibition of 1% (kainate receptor; binding; 10 µM).
For `C[C@H]1O[C@H](O[C@H]2[C@H](O)[C@@H](O)[C@@H](O[C@H]3[C@H](O)[C@@H](O)C(O)O[C@@H]3CO)O[C@@H]2CO)[C@H](O)[C@@H](O)[C@@H]1N[C@H]1C=C(CO)[C@@H](O)[C@H](O)[C@H]1O` (stereo partly drawn), the inhibition was 63.8% and 63.7% (MAL12; enzyme activity; 774.47 µM, together with: pNPG).
`C#Cc1n[nH]c2c(-c3cn(C(C)c4ccccn4)c(=O)[nH]c3=O)cc(F)cc12` (stereo not drawn) has an inhibition of 9.1% (MAP3K7 with TAB1; kinase activity, inhibitor; 1 µM).
With `Oc1ccc(Cc2ccc(O)cc2)cc1` the inhibition was > 50% (MAL12; inhibitor; 100 µg/mL, 0.4167 h, together with: p-nitrophenyl glucoside substrate).
For `O=C(Nc1cccnn1)N1CCN([C@@H]2CCOc3cc(C(F)(F)F)ccc32)CC1`, the inhibition was 13% (Gag-Pol polyprotein, protease (gag-pol, Human immunodeficiency virus type 1 group M subtype B, UniProt P04585); enzyme activity; 20 µM).
`COCc1c(-c2cc3cc(C)cc(OC)c3s2)c2c(N)ncnn2c1CN1CCNC(=O)C1` has an inhibition of -2% (nicotinic acetylcholine receptor; radioligand binding; 10 µM).
For `Oc1ccc2c3c1O[C@H]1[C@@H](O)CC[C@@]4(O)[C@@H](C2)N(CC2CCC2)CC[C@]314`, “log2 fold change” read 0.203 (Adhesion G-protein coupled receptor D1 (ADGRD1, Homo sapiens, UniProt Q6QNK2); β-arrestin recruitment, TANGO luminescence, measured: GPR133; concentration not given; relative to: basal luminescence).
For `C[C@H](C(=O)N[C@H]1COc2ccccc2[C@@H]1S(C)(=O)=O)c1ccc(F)cc1`, the inhibition was 5% (PGR (Homo sapiens, UniProt P06401); activity; 10 µM, Eurofins selectivity panel).
The inhibition of `COc1cc(Nc2ncc(F)c(Nc3ccc4c(n3)NC(=O)C(C)(C)O4)n2)cc(OC)c1OC` is reported as 100% (PDGFRB (Homo sapiens, UniProt P09619); KINOMEscan; 10 µM).
`CN1CCN(c2cc(-c3ccncc3)c(-c3ccc4ccccc4c3)nn2)CC1` has an inhibition of -7.2% (Proteinase-activated receptor 2, trypsin-activated (F2RL1, Homo sapiens, UniProt P55085); antagonist, FLIPR; 10 µM).
The inhibition of `CN(C(=O)n1cnc(-c2ccc[n+]([O-])c2)c1)C1CCCCC1` is reported as 2% (HCRTR2 (Homo sapiens, UniProt O43614); radioligand binding; 10 µM).
For `O=C1O[C@H]2[C@@H]3OC(=O)c4cc(O)c(O)c(O)c4-c4c(O)c(O)c5oc(=O)c6c(c(O)c(O)c7oc(=O)c4c5c76)-c4c(cc(O)c(O)c4O)C(=O)OC[C@H]3OC(O)[C@@H]2OC(=O)c2cc(O)c(O)c(O)c2-c2c1cc(O)c(O)c2O` (mixture of isomers), inhibition read “inhibited” (P4HB; insulin reduction; 20 µM).
Under “any TRAE incidence”, `CO[C@H]1C[C@@H]2CC[C@@H](C)[C@@](O)(O2)C(=O)C(=O)N2CCCC[C@H]2C(=O)O[C@H]([C@H](C)C[C@@H]2CC[C@@H](OC(=O)NCCOCCOCCOCCOCCOCCOCCOCCOCCC(=O)N3CCc4cc(Cn5nc(-c6ccc7oc(N)nc7c6)c6c(N)ncnc65)ccc4C3)[C@H](OC)C2)C[C@@H](O)[C@H](C)/C=C(\C)[C@@H](O)[C@@H](OC)C(=O)[C@H](C)C[C@H](C)/C=C/C=C/C=C/1C` is recorded as 75% (phase 1 dose escalation; advanced solid tumour patients; intravenous, 16 mg weekly, grade ≥3).
`Cn1cccc1-c1cccnc1` gave an inhibition of -6.26% (DRD3 (Homo sapiens, UniProt P35462); binding; 50 µM).
`O=C(Nc1cnccc1Cl)N1CCN(Cc2ccc3c(c2)OC(F)(F)O3)CC1` gave an inhibition of 19% (GABAA receptor chloride channel, rat; binding; 10 µM, together with: [3H]TBOB).
The inhibition of `Cc1ncc2c(n1)[C@H](C)[C@@H]1C[C@H]2[C@@](C)(O)CN1Cc1ccccc1` is reported as 0% (Mu-type opioid receptor (Cavia porcellus, UniProt A0ACM8Q262); binding, radioligand binding; guinea pig brain membranes; 1 µM, together with: [3H]DAMGO).
The efficacy of `CN1CCc2cc(Cl)c(O)cc2[C@@H](c2cccc3c2OCC3)C1` is reported as -118 ± 19.2% (Cholinesterase (BCHE, Homo sapiens, UniProt P06276); concentration not given, Triton).
`COc1ccc2[nH]c3c(c2c1)CCN(C)CC3` gave an inhibition of 78.8 ± 5.6% (Chrna7; ACh-evoked current, antagonist, two-electrode voltage clamp; Xenopus laevis oocytes; 10 µM, holding potential -120 mV, together with: 100 µM acetylcholine).
`FC(F)(F)c1cccc(Nc2nc(NCCOc3ccccc3)nc3[nH]cnc23)c1` has an inhibition of 8% (Cyclin-dependent kinase 5, with p25 (CDK5, Homo sapiens, UniProt Q00535); enzyme activity, inhibitor, Thermo Fisher kinase screening; 5 µM).
With `CN(CCN1CCC(OC(=O)Nc2ccccc2-c2ccccc2)CC1)C(=O)c1ccc(CN2CCC(C(N)=O)CC2)cc1` the inhibition was -6% (protein kinase C; enzyme activity; 1 µM).
`CC[C@H](C)[C@H](NC(=O)[C@@H](NC(=O)[C@H](N)Cc1ccccc1)C(C)C)C(=O)N[C@@H](C)C(N)=O` has an inhibition of 96% (APP (Homo sapiens, UniProt P05067); amyloid-beta aggregation, thioflavin T fluorescence; 2.0 µM, 72 h, together with: 2 µM amyloid-beta).
`COc1cc2c(Oc3ccc4[nH]c(C)cc4c3F)ccnc2cc1OCC1(N)CC1`: “grade 1 or 2 Fever” 25% (paediatric recurrent refractory sarcoma; 10 mg).
`CCc1cc(=O)[nH]c(-n2nc(C)cc2NC(=O)c2cc(C)ccc2F)n1`: inhibition “no inhibition” (ROCK1 (Homo sapiens, UniProt Q13464); radiometric kinase; 10 µM).
The inhibition of `CN1C(=O)/C(=N\Nc2ncc(-c3cc4ccccc4oc3=O)s2)c2cc(Cl)ccc21` is reported as 48.2% and 48% (MAL12; enzyme activity; 100 µM, together with: pNPG).
`CC[C@H](C)[C@@H]1NC(=O)[C@H](Cc2ccc(O)cc2)NC(=O)[C@H](CC(=O)O)NC(=O)CCc2cccc3c2Oc2c(cccc2-3)CCNC(=O)[C@H](CC(=O)O)NC(=O)[C@H](CC(=O)O)NC(=O)[C@H](CCCCN)NC1=O` has an inhibition of ~85% (Lymphocyte function-associated antigen 3 (CD58, Homo sapiens, UniProt P19256); antibody binding, flow cytometry; Caco-2; 200 µM, 30 min, 4 °C).
With `CC(C)N1CCC[C@H]1CNC(=O)c1cn(C2CCCC2)c(=O)c2c1c1ccccc1n2C` the inhibition was 22% (L-type calcium channel dihydropyridine site, rat; radioligand binding; 10 µM).
Under inhibition, `O=C(O[C@@H]1Cc2c(O)cc(O)cc2O[C@@H]1c1cc(=O)c(O)c2c(O)c(O)cc([C@H]3Oc4cc(O)cc(O)c4C[C@H]3O)c2c1)c1cc(O)c(O)c(O)c1` is recorded as “inhibited” (P4HB; insulin reduction; 20 µM).
`C[C@@H](NC(=O)[C@@H](N)Cc1ccc(O)cc1)C(=O)NCC(=O)N[C@@H](Cc1ccccc1)C(=O)N(C)CCC[C@@]1(c2ccc(F)cc2)OCc2cc(C#N)ccc21` has an inhibition of < 50% (ADRA2C (Homo sapiens, UniProt P18825); 10 µM).
With `Cn1cc(-c2cc(F)cc(N3CCn4c(cc5c4CCCC5)C3=O)c2CO)cc(Nc2ccc(N3CCN(C4COC4)CC3)cn2)c1=O` the inhibition was 12% (MAP3K7 with TAB1; kinase activity, inhibitor; 0.1 µM, SelectScreen profiling).
`C[C@H]1CN(c2n[nH]c3nc(N[C@H]4CC[C@H](NS(=O)(=O)CCC(F)(F)F)CC4)ncc23)CCO1` has a relative abundance of 1.17 (Putative ribosomal protein uL10-like (RPLP0P6, Homo sapiens, UniProt Q8NHW5); competitor, Kinobeads competition, measured: RPLP0-like; human cell extract; 0.8 µM; relative to: vehicle).
`NNC(=O)c1ccncc1` — result for inhibition: “no inhibition” (Gag-Pol polyprotein, integrase with LEDGF/p75 (gag-pol, Human immunodeficiency virus 1, UniProt P12497); LEDGF/p75 binding, inhibitor, AlphaScreen; HIV-1; 1000 µM).
`COc1ccc(N2C(=O)N(c3c(C)cccc3Cl)Cc3cnc(Nc4ccc(C5CCN(C)CC5)cc4OC)nc32)nc1` has an inhibition of 0.105% (CLK1 (Homo sapiens, UniProt P49759); kinase activity; 0.5 µM).
With `CCN(CC)CCOCCOC(=O)C1(c2ccccc2)CCCC1` the IC50 was 10 µM (Plasmodium falciparum; HB3).
For `O=C(Nc1cccnn1)N1CCC(=Cc2cccc(Oc3ccc(C(F)(F)F)cn3)c2)CC1`, the inhibition was 14% (BDKRB1 (Homo sapiens, UniProt P46663); binding; 50 µM, together with: [3H][des-Arg10]kallidin).
`CN1CCN(c2nc(N)c3ccccc3n2)CC1` gave an inhibition of 7.7% (Htr1d (Rattus norvegicus, UniProt P28565); radioligand binding, radioligand competition binding; rat; 0.1 µM, first replicate; relative to: control specific binding).
With `O=C(c1ccc(Cl)cc1)N1CCN2C(=O)N(OC(=O)N3CCOc4ccccc43)C(=O)C2C1` (stereo not drawn) the median ratio was 1.25 (Acyl-protein thioesterase 2 (Homo sapiens, UniProt O95372); enzyme activity, inhibitor, MS-based ABPP; SW-620 conditioned medium; 10 µM, 1 h, 37 °C; relative to: compound over DMSO, lower = stronger inhibition).
The IC50 of `CN(C)CCCN1c2ccccc2Sc2ccccc21` is reported as 1 µM (Plasmodium falciparum; W2).
With `C[C@H]1N=C(c2ccccc2F)c2cc(Br)ccc2-n2cnc(C(=O)O)c21` the inhibition was 91.9 ± 3.5% (rat benzodiazepine site; binding; rat brain; 10 µM, together with: [3H]flunitrazepam).

Excerpt of the above:
For `O=C(Nc1cccnn1)N1CCN([C@@H]2CCOc3cc(C(F)(F)F)ccc32)CC1`, the inhibition was 13% (Gag-Pol polyprotein, protease (gag-pol, Human immunodeficiency virus type 1 group M subtype B, UniProt P04585); enzyme activity; 20 µM).
The inhibition of `CN1C(=O)/C(=N\Nc2ncc(-c3cc4ccccc4oc3=O)s2)c2cc(Cl)ccc21` is reported as 48.2% and 48% (MAL12; enzyme activity; 100 µM, together with: pNPG).
With `C[C@H]1N=C(c2ccccc2F)c2cc(Br)ccc2-n2cnc(C(=O)O)c21` the inhibition was 91.9 ± 3.5% (rat benzodiazepine site; binding; rat brain; 10 µM, together with: [3H]flunitrazepam).
